Results pooled from the literature.
Lines come from different studies, so protocols differ.
Target: cAMP-dependent protein kinase catalytic subunit beta (PRKACB, Homo sapiens, UniProt P22694)

observed	mode	method	tested at	baseline	quantity	value	SMILES
binding		competition with immobilised ligand	3 µM		remaining binding	0.7%	Cc1c[nH]c2nccc(-c3ccc(C(=O)N[C@@H]4c5c(F)cc(C(F)F)cc5C[C@@H]4O)cn3)c12
cell-free assay	inhibitor		1 µM		inhibition	-1.5%	C=CC(=O)N1Cc2nc(-c3cc(-c4cc(Cl)cnc4Cl)c(F)cc3F)n(-c3ccncn3)c2C1
cell-free assay		competition with immobilised ligand	1 µM		remaining binding	100%	C=CC(=O)N1CCCC(n2c(=O)c3ncccc3n(Cc3ccc(Oc4ccccc4)cc3)c2=O)C1 (stereo not drawn)
binding		competition with immobilised ligand	1 µM		remaining binding	100%	COc1cc(Nc2nccc(-c3cnn4nc(OC)ccc34)n2)cc(C(F)(F)F)c1
cell-free assay		competition with immobilised ligand	3 µM		remaining binding	96%	COc1c(Cl)cccc1Nc1c(-c2ccncc2C#C[C@@]2(C)CCCN2C(=O)/C=C/CN(C)C)[nH]c2c1C(=O)NCC2
enzyme activity	inhibitor		10 µM		inhibition	12%	NC(=O)[C@@H](O)C[C@H]1CCc2sc3ncnc(O[C@H]4CC[C@H](N5CCOCC5)CC4)c3c21
binding		competition with immobilised ligand	1 µM		remaining binding	100%	Nc1ncc2c(n1)-c1c([nH]c3ccc(C4=CCOCC4)cc13)CCC2
enzyme activity	inhibitor		1 µM		activity vs control	89%	CNC(=O)C[C@H](Cc1ccc(C#N)cc1)NC(=O)c1cc(-c2ccc(CN[C@H](C)c3ccc(C)cc3)o2)ccc1Cl
binding		competition with immobilised ligand	0.1 µM		remaining binding	93%	Cc1cnc2nc1Nc1cccc(c1)COC/C=C/COCc1cc(ccc1OCCN1CCOCC1)N2
		KINOMEscan	1 µM	DMSO control	remaining binding	73%	C=CC(=O)N1CCc2ccc(-n3c(=O)ccc4cnc5ccc(-c6cnn(C)c6)cc5c43)cc21
enzyme activity	inhibitor		1 µM		inhibition	2%	Cc1cccc(O[C@H]2CCC[C@@H](C(C)CNCc3ccncc3)C2)c1 (relative stereo)
kinase activity			0.1 µM		inhibition	3%	C=CC(=O)Nc1cccc(-c2cnc3[nH]cc(C(=O)NC(C)(C)C)c3n2)c1

Excerpt of the above:
observed	mode	method	tested at	baseline	quantity	value	SMILES
cell-free assay		competition with immobilised ligand	1 µM		remaining binding	100%	C=CC(=O)N1CCCC(n2c(=O)c3ncccc3n(Cc3ccc(Oc4ccccc4)cc3)c2=O)C1 (stereo not drawn)
